# Measurements gathered from unrelated publications.
# A part holds a random share of what one study measured. Several values in a cell are separate wells, animals, samples, runs or records.
# Sequence of UniProt P16591 (whole entry, looked up): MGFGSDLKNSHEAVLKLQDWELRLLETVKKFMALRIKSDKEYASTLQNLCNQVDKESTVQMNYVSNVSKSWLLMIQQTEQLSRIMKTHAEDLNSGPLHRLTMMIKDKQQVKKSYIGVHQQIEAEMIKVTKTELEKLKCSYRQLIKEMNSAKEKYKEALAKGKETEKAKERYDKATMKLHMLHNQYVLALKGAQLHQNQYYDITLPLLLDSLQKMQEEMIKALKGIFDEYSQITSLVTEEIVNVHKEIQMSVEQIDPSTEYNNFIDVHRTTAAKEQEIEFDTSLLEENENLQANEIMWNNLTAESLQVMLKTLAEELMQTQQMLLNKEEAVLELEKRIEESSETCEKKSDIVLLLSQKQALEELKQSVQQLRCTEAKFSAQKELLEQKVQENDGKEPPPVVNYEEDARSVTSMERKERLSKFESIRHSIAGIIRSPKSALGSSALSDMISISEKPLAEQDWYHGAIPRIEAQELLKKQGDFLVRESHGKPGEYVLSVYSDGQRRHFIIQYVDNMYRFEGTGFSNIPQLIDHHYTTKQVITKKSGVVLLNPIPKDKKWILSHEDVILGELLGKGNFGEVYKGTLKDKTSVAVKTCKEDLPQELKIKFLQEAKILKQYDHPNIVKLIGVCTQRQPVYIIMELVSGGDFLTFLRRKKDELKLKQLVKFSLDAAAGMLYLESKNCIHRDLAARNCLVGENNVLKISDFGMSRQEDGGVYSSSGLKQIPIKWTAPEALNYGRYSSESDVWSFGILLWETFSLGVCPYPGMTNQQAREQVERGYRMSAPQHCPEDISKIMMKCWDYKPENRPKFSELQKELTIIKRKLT
# Sequence of UniProt P52333 (whole entry, looked up): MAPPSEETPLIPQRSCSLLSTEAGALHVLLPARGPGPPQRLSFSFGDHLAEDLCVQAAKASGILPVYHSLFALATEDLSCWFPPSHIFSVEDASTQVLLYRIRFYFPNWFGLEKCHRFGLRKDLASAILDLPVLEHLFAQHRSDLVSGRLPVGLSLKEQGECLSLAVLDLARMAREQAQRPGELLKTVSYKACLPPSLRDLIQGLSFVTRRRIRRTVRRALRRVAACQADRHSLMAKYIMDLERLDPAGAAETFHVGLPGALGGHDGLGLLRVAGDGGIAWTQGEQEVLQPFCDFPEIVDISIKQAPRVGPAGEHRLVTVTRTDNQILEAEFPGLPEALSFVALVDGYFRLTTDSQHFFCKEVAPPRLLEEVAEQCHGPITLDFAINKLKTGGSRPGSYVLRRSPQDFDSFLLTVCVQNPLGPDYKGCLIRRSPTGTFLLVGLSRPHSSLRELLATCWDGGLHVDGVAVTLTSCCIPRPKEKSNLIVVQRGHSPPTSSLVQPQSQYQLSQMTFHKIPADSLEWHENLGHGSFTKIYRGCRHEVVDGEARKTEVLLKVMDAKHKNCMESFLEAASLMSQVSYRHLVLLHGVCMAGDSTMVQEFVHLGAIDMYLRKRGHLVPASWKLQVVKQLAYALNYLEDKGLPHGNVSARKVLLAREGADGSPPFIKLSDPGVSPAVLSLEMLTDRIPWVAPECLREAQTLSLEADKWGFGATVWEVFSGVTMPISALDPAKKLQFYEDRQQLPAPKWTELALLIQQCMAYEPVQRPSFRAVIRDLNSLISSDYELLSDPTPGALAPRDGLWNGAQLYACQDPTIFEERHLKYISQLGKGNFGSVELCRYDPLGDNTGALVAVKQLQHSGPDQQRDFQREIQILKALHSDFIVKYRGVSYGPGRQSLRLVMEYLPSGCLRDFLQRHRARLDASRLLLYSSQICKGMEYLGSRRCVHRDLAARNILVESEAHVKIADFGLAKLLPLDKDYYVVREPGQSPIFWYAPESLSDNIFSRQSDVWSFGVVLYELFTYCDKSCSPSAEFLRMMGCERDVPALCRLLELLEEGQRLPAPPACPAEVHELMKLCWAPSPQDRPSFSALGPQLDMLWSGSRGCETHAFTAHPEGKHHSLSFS
# Sequence of UniProt Q8TDX7 (whole entry, looked up): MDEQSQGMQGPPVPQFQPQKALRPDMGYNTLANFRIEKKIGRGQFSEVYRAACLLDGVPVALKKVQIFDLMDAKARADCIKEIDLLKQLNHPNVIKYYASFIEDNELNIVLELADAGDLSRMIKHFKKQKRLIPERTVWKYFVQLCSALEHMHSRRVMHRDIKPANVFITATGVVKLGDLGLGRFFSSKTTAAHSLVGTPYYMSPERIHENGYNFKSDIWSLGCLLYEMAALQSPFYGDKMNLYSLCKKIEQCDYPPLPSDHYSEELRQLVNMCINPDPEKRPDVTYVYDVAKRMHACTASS
# Sequence of UniProt P52564 (whole entry, looked up): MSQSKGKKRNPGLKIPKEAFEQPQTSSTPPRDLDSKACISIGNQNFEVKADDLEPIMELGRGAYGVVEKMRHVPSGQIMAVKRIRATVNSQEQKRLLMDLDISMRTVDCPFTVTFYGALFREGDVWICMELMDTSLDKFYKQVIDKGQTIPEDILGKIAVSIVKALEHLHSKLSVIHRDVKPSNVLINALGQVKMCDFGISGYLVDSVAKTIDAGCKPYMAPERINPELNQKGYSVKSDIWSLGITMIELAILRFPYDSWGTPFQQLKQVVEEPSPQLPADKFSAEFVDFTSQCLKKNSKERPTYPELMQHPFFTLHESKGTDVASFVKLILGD
# Sequence of UniProt Q16566 (whole entry, looked up): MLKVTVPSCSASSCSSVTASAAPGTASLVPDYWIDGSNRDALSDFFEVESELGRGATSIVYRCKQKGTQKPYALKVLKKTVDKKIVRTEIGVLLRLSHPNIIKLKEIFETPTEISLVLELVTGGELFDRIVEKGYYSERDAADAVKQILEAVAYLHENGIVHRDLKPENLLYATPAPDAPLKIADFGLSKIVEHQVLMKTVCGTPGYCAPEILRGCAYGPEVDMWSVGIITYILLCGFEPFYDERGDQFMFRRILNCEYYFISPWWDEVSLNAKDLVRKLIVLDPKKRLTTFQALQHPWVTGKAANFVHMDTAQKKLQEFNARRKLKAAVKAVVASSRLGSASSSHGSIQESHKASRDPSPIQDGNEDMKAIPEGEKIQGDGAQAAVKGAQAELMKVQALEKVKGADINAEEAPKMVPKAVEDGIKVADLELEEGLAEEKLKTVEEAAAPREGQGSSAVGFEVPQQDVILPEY
# Sequence of UniProt P07949 (whole entry, unmodified, looked up): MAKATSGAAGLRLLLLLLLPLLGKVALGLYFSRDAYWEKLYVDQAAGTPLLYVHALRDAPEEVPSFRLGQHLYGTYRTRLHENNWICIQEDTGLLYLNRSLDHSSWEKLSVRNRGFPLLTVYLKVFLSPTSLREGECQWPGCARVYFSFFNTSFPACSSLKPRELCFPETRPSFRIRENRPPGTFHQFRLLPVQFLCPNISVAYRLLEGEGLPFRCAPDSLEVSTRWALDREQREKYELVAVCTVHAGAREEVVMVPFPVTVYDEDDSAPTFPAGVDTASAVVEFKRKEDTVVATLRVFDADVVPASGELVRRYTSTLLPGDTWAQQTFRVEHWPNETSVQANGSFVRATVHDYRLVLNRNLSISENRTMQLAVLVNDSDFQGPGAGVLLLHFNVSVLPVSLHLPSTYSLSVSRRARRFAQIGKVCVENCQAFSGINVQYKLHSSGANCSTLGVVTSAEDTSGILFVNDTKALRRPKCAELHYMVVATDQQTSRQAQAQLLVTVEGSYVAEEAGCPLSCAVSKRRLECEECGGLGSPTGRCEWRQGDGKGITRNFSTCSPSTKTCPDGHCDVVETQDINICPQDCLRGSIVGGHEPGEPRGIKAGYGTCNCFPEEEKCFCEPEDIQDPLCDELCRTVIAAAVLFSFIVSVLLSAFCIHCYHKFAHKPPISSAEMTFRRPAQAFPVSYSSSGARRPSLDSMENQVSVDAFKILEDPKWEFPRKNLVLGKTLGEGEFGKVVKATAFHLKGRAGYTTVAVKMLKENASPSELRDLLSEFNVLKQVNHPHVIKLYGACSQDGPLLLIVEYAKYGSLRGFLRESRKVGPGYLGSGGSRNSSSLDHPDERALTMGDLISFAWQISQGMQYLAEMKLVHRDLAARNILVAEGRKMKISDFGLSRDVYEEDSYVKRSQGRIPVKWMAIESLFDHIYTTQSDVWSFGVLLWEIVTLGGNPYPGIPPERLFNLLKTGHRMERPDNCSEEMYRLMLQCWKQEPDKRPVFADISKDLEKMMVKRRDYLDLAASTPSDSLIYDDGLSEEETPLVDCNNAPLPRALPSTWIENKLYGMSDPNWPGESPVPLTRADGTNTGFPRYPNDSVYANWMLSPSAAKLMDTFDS

# Sample 1
# Cell line: mouse MPNST tumor cells
# Method: high-content immunofluorescence imaging
# Refers to: nuclear SOX9
# Tested at: 10 µM
# Time: 12 h
# Setting: mean of 2 replicates
# Baseline: DMSO control
# Reading: higher = more nuclear SOX9
SMILES,nuclear SOX9 intensity
O=C(O)c1ccc2c(c1)C(=O)N(c1cccc(Oc3ccc([N+](=O)[O-])cc3)c1)C2=O,92.1 % of DMSO
COc1ccc(-n2cnnn2)cc1CN[C@H]1CCCN[C@H]1c1ccccc1,107 % of DMSO
CN(C)CC/C=C1/c2ccccc2COc2ccc(CC(=O)O)cc21,95.9 % of DMSO and 89.1 % of DMSO
Nc1ccc(-c2ccc3ncc4ccc(=O)n(-c5cccc(C(F)(F)F)c5)c4c3c2)cn1,154 % of DMSO
N=C(N)c1ccc(-c2ccc(-c3ccc(C(=N)N)cc3)o2)cc1,70.1 % of DMSO
CN(C/C=C/C#CC(C)(C)C)Cc1cccc2ccccc12,103 % of DMSO

# Sample 2
# Species: human
# Matrix: microsomes or S9
# Tested at: 2 µM
# Time: 0.5 h
Structure (SMILES),remaining compound [%]
O=C(Nc1ccccc1OCc1cscn1)c1cc(Cl)c[nH]1,0.696
COc1ccc(Nc2nc(NCCN3CCOCC3)nc(Nc3ccc(OC)cc3)n2)cc1,28.6
CCOC(=O)c1c(C)c(C(=O)CN(C)S(=O)(=O)c2ccccc2)c(C)n1CC,11.7
Cc1ccc(-n2nncc2-c2ccc(O)cc2O)cc1,> 100
COc1ccc(-c2cc(-c3nc4c5c(ncn4n3)CCC5)n[nH]2)cc1,10.3
Cc1[nH]c(=O)c2ccccc2c1C(=O)OC(C)(C)C,23.5
CCOC(=O)CCCc1nc2cc(N)ccc2n1C,1.79
Cc1noc(C)c1CC(=O)NCC12CCC=C1NC(=O)CC2 (stereo not shown),> 99
CC1(C)CC(NC(=O)c2cccc(Br)c2)CC(C)(C)N1,9.68
N#Cc1cccc(-n2c3ccccc3c3ccncc32)c1,6.38
Cn1c(=O)oc2cc(S(=O)(=O)N3CCC4(CC3)Nc3ccccc3-n3cccc34)ccc21,> 99.9

# Sample 3
# Compound: CSc1cccnc1N1CCN(Cc2nc3ccccc3[nH]2)CC1
# Effect on: cell-free assay
# Method: competition with immobilised ligand
# Tested at: 1 µM
target,remaining binding [%]
"BLK (Homo sapiens, UniProt P51451)",96
"Macrophage colony-stimulating factor 1 receptor, autoinhibited (CSF1R, Homo sapiens, UniProt P07333)",73
"MAP2K6 (Homo sapiens, UniProt P52564)",100
"NEK7 (Homo sapiens, UniProt Q8TDX7)",100
"RET (Homo sapiens, UniProt P07949, M918T)",99
"FER (Homo sapiens, UniProt P16591)",100
"CAMK4 (Homo sapiens, UniProt Q16566)",100
"DDR2 (Homo sapiens, UniProt Q16832)",89
"Ribosomal protein S6 kinase alpha-3, C-terminal kinase domain (RPS6KA3, Homo sapiens, UniProt P51812)",77
"CDK15 (Homo sapiens, UniProt Q96Q40)",100
"ROCK2 (Homo sapiens, UniProt O75116)",74
"FLT3 (Homo sapiens, UniProt P36888, ITD)",100
"Tyrosine-protein kinase JAK3, JH1 (JAK3, Homo sapiens, UniProt P52333)",100
"PIK3C3 (Homo sapiens, UniProt Q8NEB9)",94
"FLT3 (Homo sapiens, UniProt P36888, K663Q)",93
"CLK2 (Homo sapiens, UniProt P49760)",100

# Sample 4
# Target: Serine/threonine-protein kinase PAK 4 (PAK4, Homo sapiens, UniProt O96013)
# Sequence of UniProt O96013 (whole entry, looked up): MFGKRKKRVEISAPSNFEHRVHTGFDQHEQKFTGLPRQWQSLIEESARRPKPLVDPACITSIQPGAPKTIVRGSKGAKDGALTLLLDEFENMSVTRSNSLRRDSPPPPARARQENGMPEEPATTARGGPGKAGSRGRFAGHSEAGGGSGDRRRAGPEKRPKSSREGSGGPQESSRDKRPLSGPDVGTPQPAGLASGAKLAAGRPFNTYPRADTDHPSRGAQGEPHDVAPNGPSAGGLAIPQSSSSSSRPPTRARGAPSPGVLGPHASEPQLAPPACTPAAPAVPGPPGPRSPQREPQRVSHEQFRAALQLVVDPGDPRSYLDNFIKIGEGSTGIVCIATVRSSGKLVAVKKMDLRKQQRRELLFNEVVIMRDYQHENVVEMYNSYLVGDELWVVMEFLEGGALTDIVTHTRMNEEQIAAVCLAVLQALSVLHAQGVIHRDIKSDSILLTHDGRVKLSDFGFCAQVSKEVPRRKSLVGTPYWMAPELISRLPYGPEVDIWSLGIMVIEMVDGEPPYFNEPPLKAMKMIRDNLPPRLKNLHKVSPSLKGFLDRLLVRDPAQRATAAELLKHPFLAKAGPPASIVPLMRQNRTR
# Effect on: enzyme activity
# Action: inhibitor
# Tested at: 0.5 µM
# Baseline: control
SMILES,remaining activity [%]
CCCCc1c(-c2ccc(OC)cc2)[nH]c2nccnc12,107
CN(C)S(=O)(=O)c1ccc2c(c1)/C(=C/c1cc3c([nH]1)CCCC3)C(=O)N2,97.6
O=C(c1cc2cc(O)ccc2[nH]1)c1cc2cc(O)ccc2[nH]1,111
COc1ccc(COc2ccc(Cc3cnc(N)nc3N)cc2OC)cc1,101
COc1cccc(-c2cc(=O)c3ccccc3o2)c1N,88.1
O=C1NC(=O)c2c1c1c3ccccc3[nH]c1c1[nH]c3cc(Br)ccc3c21,96.4
CCCNC(=O)Nc1ccc(Oc2ncnc3cc(OC)c(OC)cc23)cc1Cl,95.7
CN1CCN(c2ccc3nc(-c4c(N)c5c(F)cccc5[nH]c4=O)[nH]c3c2)CC1,93
Oc1cccc(-c2nc(N3CCOCC3)c3oc4ncccc4c3n2)c1,90.7
COc1ccc2c(c1)c(C1=C(c3c[nH]c4ccccc34)C(=O)NC1=O)cn2CCCN(C)C,94.8

# Repeated from above (sample 3):
target,remaining binding [%]
"CAMK4 (Homo sapiens, UniProt Q16566)",100
"CLK2 (Homo sapiens, UniProt P49760)",100
"Macrophage colony-stimulating factor 1 receptor, autoinhibited (CSF1R, Homo sapiens, UniProt P07333)",73
"RET (Homo sapiens, UniProt P07949, M918T)",99
